Measured values collected from several papers.
Compare with care: the assays were run in different laboratories.

CO[C@H]1/C=C/O[C@@]2(C)Oc3c(C)c(O)c4c(c3C2=O)C2=NC3(CCN(CC(C)C)CC3)NC2=C(NC(=O)/C(C)=C\C=C\[C@H](C)[C@H](O)[C@@H](C)[C@@H](O)[C@@H](C)[C@H](OC(=O)c2cccc(F)c2)[C@@H]1C)C4=O  volume of distribution (CD-1 mouse; 10 mg/kg, single dose): 1.9 L/kg
COC1C=COC2(C)Oc3c(C)c(O)c4c(c3C2=O)C2=NC3(CCN(CC(C)C)CC3)NC2=C(NC(=O)C(C)=CC=CC(C)C(O)C(C)C(O)C(C)C(OC(=O)c2cccnc2)C1C)C4=O (centres unmarked)  volume of distribution (CD-1 mouse, female, plasma; intravenous, 5 mg/kg): 1.8 L/kg
Cc1ncsc1-c1ccc(CNC(=O)[C@@H]2C[C@@H](O)CN2C(=O)[C@@H](NC(=O)COCC(C)(COCCOCCOCCNC(=O)C[C@@H]2N=C(c3ccc(Cl)cc3)c3c(sc(C)c3C)-n3c(C)nnc32)COCCOCCOCCNC(=O)C[C@@H]2N=C(c3ccc(Cl)cc3)c3c(sc(C)c3C)-n3c(C)nnc32)C(C)(C)C)cc1  volume of distribution at steady state (C57BL/6 mouse male, plasma; intravenous, 5 mg/kg): 0.349 L/kg
CO[C@H]1/C=C/O[C@@]2(C)Oc3c(C)c(O)c4c(c3C2=O)C2=NC3(CCN(CC(C)C)CC3)NC2=C(NC(=O)/C(C)=C\C=C\[C@H](C)[C@H](O)[C@@H](C)[C@@H](O)[C@@H](C)[C@H](OC(=O)c2cccnc2)[C@@H]1C)C4=O  volume of distribution (CD-1 mouse; 10 mg/kg, single dose): 1.6 L/kg
O=[N][Fe]1([N]=O)[S](CCO)[Fe]([N]=O)([N]=O)[S]1CCO  volume of distribution (C57BL/6JNarl mouse, plasma; oral, dose not given): 0.32 L
COC1C=COC2(C)Oc3c(C)c(O)c4c(c3C2=O)C2=NC3(CCN(CC(C)C)CC3)NC2=C(NC(=O)C(C)=CC=CC(C)C(O)C(C)C(O)C(C)C(OC(=O)c2cncnc2)C1C)C4=O (centres unmarked)  volume of distribution (CD-1 mouse, female, plasma; intravenous, 5 mg/kg): 2.4 L/kg
Nc1ccc(-c2ccc(F)cc2)cc1NC(=O)C1CCOCC1  volume of distribution (C57BL/6 mouse, male, plasma; intraperitoneal, 10 mg/kg): 1.9 L/kg
CN[C@H](CC(C)C)C(=O)N[C@H]1C(=O)N[C@@H](CC(N)=O)C(=O)N[C@H]2C(=N)N[C@H]3C(=O)N[C@H](C(=O)N[C@H](C(=O)NCCC[N+](C)(C)C)c4cc(O)cc(O)c4-c4cc3ccc4O)[C@H](O)c3ccc(c(Cl)c3)Oc3cc2cc(c3O[C@@H]2O[C@H](CO)[C@@H](O)[C@H](O)[C@H]2O[C@H]2C[C@](C)(NCc3ccc(-c4ccc(Cl)cc4)cc3)[C@H](O)[C@H](C)O2)Oc2ccc(cc2Cl)[C@H]1O  volume of distribution (mouse; intravenous, 50 mg/kg): 0.12 L/kg
